# Experimental data from different studies.
# Lines come from different studies, so protocols differ.
# Organism: Pseudomonas aeruginosa
SMILES,assay,system,conditions,how to read,MIC
CC[C@H](C)[C@H](NC(=O)[C@H](CC(C)C)NC(=O)[C@H](CCCCN)NC(=O)[C@@H](NC(=O)[C@H](C)NC(=O)[C@H](CCC(=O)O)NC(=O)[C@H](Cc1c[nH]cn1)NC(=O)[C@@H](NC(=O)[C@H](CCCCN)NC(=O)[C@H](CCC(N)=O)NC(=O)[C@H](Cc1ccccc1)NC(=O)[C@@H](NC(=O)[C@H](CCCCN)NC(=O)[C@H](CCCCN)NC(=O)[C@H](CC(C)C)NC(=O)[C@H](C)N)C(C)C)[C@@H](C)CC)[C@@H](C)CC)C(N)=O,broth microdilution,4007 resistant,"18 h, 37 °C",,8 µM
CC[C@H](C)CCCCC(=O)N[C@@H](CCN)C(=O)N[C@H](C(=O)N[C@@H](CCN)C(=O)N[C@H]1CCNC(=O)[C@H]([C@@H](C)O)NC(=O)[C@H](CCN)NC(=O)[C@H](CCN)NC(=O)[C@H](CC(C)C)NC(=O)[C@@H](Cc2ccccc2)NC(=O)[C@H](CCN)NC1=O)[C@@H](C)O,broth microdilution,ATCC 27853,"24 h, 37 °C",,2 µg/mL
CN1C(=O)Cc2ccc(F)c(CNCCCC3CN(c4ccc5c(n4)NC(=O)CO5)C(=O)O3)c21 (stereo not drawn),,ATCC 27853,,,2 µg/mL
CC[C@H](C)[C@H](NC(=O)CNC(=O)[C@H](CC(=O)O)NC(=O)[C@H](CCCNC(=N)N)NC(=O)[C@@H](NC(=O)[C@H](CC(N)=O)NC(=O)[C@H](CCCNC(=N)N)NC(=O)CNC(=O)[C@@H](NC(=O)[C@H](CCCCN)NC(=O)[C@H](CCC(=O)O)NC(=O)[C@@H](NC(=O)[C@H](CCCCN)NC(=O)[C@H](CCCCN)NC(=O)[C@H](Cc1ccccc1)NC(=O)[C@@H](NC(=O)[C@H](CCCCN)NC(=O)[C@H](Cc1c[nH]c2ccccc12)NC(=O)[C@@H](N)CCCNC(=N)N)[C@@H](C)CC)[C@@H](C)CC)C(C)C)C(C)C)C(=O)N[C@H](C(=O)N[C@@H](CCCCN)C(=O)N[C@@H](C)C(=O)N1CCC[C@H]1C(=O)N1CCC[C@H]1C(=O)N[C@@H](C)C(=O)N[C@H](C(=O)N[C@@H](C)C(=O)N[C@H](C(=O)N[C@H](C(=O)NCC(=O)N[C@@H](CCC(N)=O)C(=O)N[C@@H](C)C(=O)N[C@@H](C)C(=O)N[C@H](C(=O)N[C@H](C(=O)N[C@H](C(=O)N[C@@H](CCCCN)C(N)=O)C(C)C)C(C)C)[C@@H](C)O)C(C)C)C(C)C)C(C)C)[C@@H](C)CC,,"KCCM 11328, Mueller-Hinton broth","16 h, 37 °C",growth inhibition over 99%,64 µM
C[C@@H](O)[C@H]1C(=O)N2C(C(=O)O)=C(S[C@@H]3CN[C@H](C(=O)N(C)C)C3)[C@H](C)[C@H]12,broth microdilution,,multidrug-resistant clinical isolate,,0.5 µg/mL
CC1(C)S[C@@H]2[C@H](NC(=O)C(C(=O)O)c3ccccc3)C(=O)N2[C@H]1C(=O)O (stereo partly drawn),,fptA mutant,,,25 µg/mL
CC[C@H](C)[C@H](N)C(=O)N[C@@H](CO)C(=O)N[C@@H](Cc1ccccc1)C(=O)N[C@@H](CC(C)C)C(=O)NCC(=O)N[C@@H](CO)C(=O)N[C@@H](CCCCN)C(=O)N[C@H](C(=O)N[C@H](C(=O)N[C@H](C(=O)N[C@@H](CC(C)C)C(=O)N[C@@H](CC(C)C)C(=O)N[C@@H](CCCCN)C(=O)N[C@@H](CCCNC(=N)N)C(=O)N[C@@H](CCCNC(=N)N)C(=O)N[C@@H](CCCNC(=N)N)C(=O)N[C@@H](CCCNC(=N)N)C(=O)N[C@@H](CCCNC(=N)N)C(=O)N[C@@H](CCCNC(=N)N)C(=O)N[C@@H](CCCNC(=N)N)C(N)=O)C(C)C)C(C)C)C(C)C,broth microdilution,ATCC 27853,highest value reported,,8 µM
CC(C)[C@H](NC(=O)[C@H](C)N)C(=O)N[C@@H](C)C(=O)N[C@H](C(=O)N[C@H](C(=O)NCC(=O)N[C@@H](CCC(N)=O)C(=O)N[C@@H](C)C(=O)N[C@@H](C)C(=O)N[C@H](C(=O)N[C@H](C(=O)N[C@H](C(=O)N[C@@H](CCCCN)C(N)=O)C(C)C)C(C)C)[C@@H](C)O)C(C)C)C(C)C,,"KCCM 11328, Mueller-Hinton broth","16 h, 37 °C",growth inhibition over 99%,> 64 µM
CC1(C)SC2C(NC(=O)C(NC(=O)C3=C(O)C(Cc4ccsc4)NC3=O)c3ccccc3)C(=O)N2C1C(=O)O (stereo not drawn),,fpvA mutant,,,50 µg/mL
CC[C@H](C)[C@H](NC(=O)CNC(=O)[C@H](CC(=O)O)NC(=O)[C@H](CCCNC(=N)N)NC(=O)[C@@H](NC(=O)[C@H](CC(N)=O)NC(=O)[C@H](CCCNC(=N)N)NC(=O)CNC(=O)[C@@H](NC(=O)[C@H](CCCCN)NC(=O)[C@H](CCC(=O)O)NC(=O)[C@@H](NC(=O)[C@H](CCCCN)NC(=O)[C@H](CCCCN)NC(=O)[C@H](Cc1ccccc1)NC(=O)[C@@H](NC(=O)[C@H](CCCCN)NC(=O)[C@H](Cc1c[nH]c2ccccc12)NC(=O)[C@@H](N)CCCNC(=N)N)[C@@H](C)CC)[C@@H](C)CC)C(C)C)C(C)C)C(=O)N[C@H](C(=O)N[C@@H](CCCCN)C(=O)N[C@@H](C)C(=O)NCC(=O)N1CCC[C@H]1C(=O)N[C@@H](C)C(=O)N[C@H](C(=O)N[C@@H](C)C(=O)N[C@@H](C)C(=O)N[C@@H](C)C(=O)NCC(=O)N[C@@H](CCC(N)=O)C(=O)N[C@@H](C)C(=O)N[C@@H](C)C(=O)N[C@H](C(=O)N[C@H](C(=O)N[C@H](C(=O)N[C@@H](CCCCN)C(N)=O)C(C)C)C(C)C)[C@@H](C)O)C(C)C)[C@@H](C)CC,,"KCCM 11328, Mueller-Hinton broth","16 h, 37 °C",growth inhibition over 99%,4 µM
CC1(C)S[C@@H]2[C@H](NC(=O)[C@H](N)c3ccccc3)C(=O)N2[C@H]1C(=O)O,,pvcA mutant,,,200 µg/mL
CC[C@H](C)[C@H](NC(=O)[C@H](CC(C)C)NC(=O)[C@H](CCCCN)NC(=O)[C@H](CC(C)C)NC(=O)CNC(=O)[C@@H](NC(=O)[C@H](CO)NC(=O)[C@@H](NC(=O)[C@@H](NC(=O)[C@H](CCC(N)=O)NC(=O)[C@H](Cc1c[nH]c2ccccc12)NC(=O)[C@H](CCCNC(=N)N)NC(=O)[C@H](CC(N)=O)NC(=O)[C@H](CCCNC(=N)N)NC(=O)[C@H](CCCNC(=N)N)NC(=O)[C@@H](NC(=O)[C@H](Cc1ccccc1)NC(=O)[C@H](CCCNC(=N)N)NC(=O)CNC(=O)[C@H](C)NC(=O)[C@H](CCCNC(=N)N)NC(=O)[C@H](CCCNC(=N)N)NC(=O)[C@H](CCCCN)NC(=O)[C@H](Cc1ccccc1)NC(=O)[C@H](CCCNC(=N)N)NC(=O)CNC(=O)[C@H](Cc1c[nH]c2ccccc12)NC(=O)[C@H](CCCNC(=N)N)NC(=O)CNC(=O)[C@H](CCCNC(=N)N)NC(=O)[C@@H](N)[C@@H](C)O)[C@@H](C)CC)[C@@H](C)CC)[C@@H](C)CC)[C@@H](C)O)C(=O)NCC(=O)O,,CMCC 10104,highest concentration 50 µM,,4.79 µM
CC(C)C[C@@H](NC(=O)CNC(=O)[C@@H](CCCCN)NC(=O)[C@@H](CC(C)C)NC(=O)[C@@H](CCCCN)NC(=O)[C@@H](CCCNC(=N)N)NC(=O)[C@@H](CC(C)C)NC(=O)[C@@H](CC(C)C)NC(=O)[C@@H](CCCNC(=N)N)NC(=O)[C@H](N)CCCNC(=N)N)C(=O)N[C@H](CCCCN)C(=O)N[C@H](CCCCN)C(=O)N[C@H](Cc1ccc(O)cc1)C(=O)N[C@H](CC(C)C)C(=O)N[C@H](Cc1ccc(O)cc1)C(=O)N[C@H](Cc1ccccc1)C(=O)N[C@H](CCCCN)C(=O)N[C@H](CC(C)C)C(=O)N[C@H](CCC(N)=O)C(=O)N[C@H](CC(C)C)C(=O)N[C@H](CC(C)C)C(=O)N[C@H](CCCCN)C(=O)N[C@H](CCCCN)C(N)=O,,"KCTC 1637, Mueller-Hinton broth",24 h,,2 µM
CC(C)C[C@@H]1NC(=O)[C@H](Cc2ccccc2)NC(=O)[C@H](Cc2ccc(O)cc2)NC(=O)[C@H](CC(C)C)NC(=O)[C@H](CCC(=O)O)NC(=O)[C@H](Cc2ccccc2)NC(=O)[C@H](CCCNC(=N)N)NC(=O)[C@H](CCC(N)=O)NC(=O)[C@H](CC(C)C)NC(=O)[C@H](CC(=O)O)NC(=O)[C@@H]2CCCN2C(=O)[C@H](CCCCN)NC(=O)[C@H](C(C)C)NC(=O)[C@H](CC(N)=O)NC(=O)[C@H](Cc2ccc(O)cc2)NC(=O)[C@H]([C@@H](C)O)NC(=O)[C@@H](N)CSSC[C@@H](C(=O)O)NC(=O)[C@H]([C@@H](C)O)NC(=O)[C@H](C(C)C)NC(=O)[C@H]([C@@H](C)O)NC(=O)CNC1=O,broth dilution,CGMCC strain,24 h,,> 40 µM
CC[C@H](C)[C@H](NC(=O)[C@H](CC(C)C)NC(=O)[C@H](CC(C)C)NC(=O)[C@H](CC(C)C)NC(=O)[C@@H](NC(=O)[C@@H](NC(=O)[C@H](CCCNC(=N)N)NC(=O)[C@H](CCCNC(=N)N)NC(=O)[C@H](CCCNC(=N)N)NC(=O)[C@H](CCCNC(=N)N)NC(=O)[C@H](CC(C)C)NC(=O)[C@H](CCCNC(=N)N)NC(=O)[C@H](CO)NC(=O)[C@@H](N)CO)[C@@H](C)CC)C(C)C)C(=O)N[C@@H](CO)C(=O)N[C@@H](CCCNC(=N)N)C(=O)N[C@@H](CCCNC(=N)N)C(=O)N[C@@H](CCCNC(=N)N)C(=O)N[C@@H](CCCNC(=N)N)C(N)=O,broth microdilution,ATCC 27853,highest value reported,,8 µM
CC(C)(C)Oc1ccc(CC2NC(=O)C(C(=O)NC(C(=O)NC3C(=O)N4C3SC(C)(C)C4C(=O)O)c3ccccc3)=C2O)cc1 (stereo not drawn),,pvdS mutant,,,12.5 µg/mL
C[C@@H](O)[C@H](NC(=O)[C@H](Cc1c[nH]c2ccccc12)NC(=O)[C@H](Cc1c[nH]c2ccccc12)NC(=O)[C@H](Cc1c[nH]c2ccccc12)NC(=O)[C@@H](NC(=O)[C@H](Cc1c[nH]c2ccccc12)NC(=O)[C@H](CCCNC(=N)N)NC(=O)[C@@H](N)CCCNC(=N)N)[C@@H](C)O)C(=O)N[C@@H](Cc1c[nH]c2ccccc12)C(=O)N[C@@H](CCCNC(=N)N)C(=O)N[C@@H](CCCNC(=N)N)C(N)=O,broth microdilution,"27853, Mueller-Hinton broth","24 h, 37 °C, lowest concentration, 95% inhibition, added: BSA",,4 µM
CC1(C)SC2C(NC(=O)C(NC(=O)C3=C(O)C(Cc4ccccc4)NC3=O)c3ccccc3)C(=O)N2C1C(=O)O (stereo not drawn),,fptA mutant,,,12.5 µg/mL
CC[C@H](C)[C@H](N)C(=O)N[C@@H](CCCNC(=N)N)C(=O)N[C@H](C(=O)N[C@@H](Cc1c[nH]c2ccccc12)C(=O)N[C@@H](Cc1c[nH]c2ccccc12)C(=O)N[C@@H](CCCCN)C(=O)N[C@H](C(=O)N[C@H](C(=O)N[C@@H](CCCNC(=N)N)C(=O)N[C@@H](CCCCN)C(=O)N[C@@H](Cc1c[nH]c2ccccc12)C(=O)N[C@@H](CCCCN)C(=O)N[C@@H](C)C(=O)N[C@H](C(=O)N[C@@H](Cc1c[nH]c2ccccc12)C(=O)N[C@@H](Cc1c[nH]cn1)C(N)=O)[C@@H](C)CC)C(C)C)[C@@H](C)CC)C(C)C,broth dilution,ATCC 27853,,,100 µM
CC(C)(C)OCC1NC(=O)C(C(=O)NC(C(=O)NC2C(=O)N3C2SC(C)(C)C3C(=O)O)c2ccccc2)=C1O (stereo not drawn),,pqsE mutant,,,25 µg/mL
CC[C@H](C)[C@H](NC(=O)[C@H](Cc1c[nH]c2ccccc12)NC(=O)[C@@H](NC(=O)[C@H](Cc1ccc(O)cc1)NC(=O)[C@@H]1CCCN1C(=O)[C@@H](NC(=O)[C@H](C)N)[C@@H](C)CC)[C@@H](C)CC)C(=O)N[C@@H](Cc1ccc(O)cc1)C(=O)N[C@@H](CCCNC(=N)N)C(=O)N[C@@H](CC(C)C)C(=O)N[C@@H](CC(C)C)C(=O)N[C@@H](CCCNC(=N)N)C(=O)N[C@@H](CCCCN)C(=O)NCC(N)=O,broth microdilution,PAO1,"18 h, 37 °C",,15 µM
